Measurements pooled from the literature.
Numbered parts are unrelated; each lists some results of a single study.
Chain of UniProt P07333 (whole entry, looked up): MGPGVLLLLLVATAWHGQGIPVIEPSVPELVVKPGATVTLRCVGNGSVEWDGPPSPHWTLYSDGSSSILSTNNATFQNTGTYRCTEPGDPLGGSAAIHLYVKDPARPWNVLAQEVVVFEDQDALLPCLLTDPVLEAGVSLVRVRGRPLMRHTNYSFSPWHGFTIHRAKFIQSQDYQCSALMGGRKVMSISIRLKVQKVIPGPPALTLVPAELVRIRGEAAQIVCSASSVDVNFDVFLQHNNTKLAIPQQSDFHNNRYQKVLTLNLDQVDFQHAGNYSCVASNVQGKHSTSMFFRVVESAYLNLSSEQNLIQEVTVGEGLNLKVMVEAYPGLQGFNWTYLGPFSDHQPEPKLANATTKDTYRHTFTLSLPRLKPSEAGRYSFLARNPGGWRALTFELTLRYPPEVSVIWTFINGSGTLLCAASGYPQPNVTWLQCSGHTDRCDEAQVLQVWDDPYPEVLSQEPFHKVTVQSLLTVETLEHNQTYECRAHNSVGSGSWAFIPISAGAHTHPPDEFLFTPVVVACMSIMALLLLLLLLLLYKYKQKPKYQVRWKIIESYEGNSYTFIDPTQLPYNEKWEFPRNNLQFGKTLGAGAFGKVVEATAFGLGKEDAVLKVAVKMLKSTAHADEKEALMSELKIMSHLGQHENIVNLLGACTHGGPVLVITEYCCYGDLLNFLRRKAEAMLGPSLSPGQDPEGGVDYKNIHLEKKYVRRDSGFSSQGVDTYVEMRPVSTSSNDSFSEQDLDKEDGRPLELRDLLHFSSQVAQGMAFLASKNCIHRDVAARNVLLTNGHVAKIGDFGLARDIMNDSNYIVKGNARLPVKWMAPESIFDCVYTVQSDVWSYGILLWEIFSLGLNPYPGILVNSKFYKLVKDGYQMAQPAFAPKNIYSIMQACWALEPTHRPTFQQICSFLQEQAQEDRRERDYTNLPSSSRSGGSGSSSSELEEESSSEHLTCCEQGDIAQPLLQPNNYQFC
Chain of UniProt Q9H1R3 (whole entry, looked up): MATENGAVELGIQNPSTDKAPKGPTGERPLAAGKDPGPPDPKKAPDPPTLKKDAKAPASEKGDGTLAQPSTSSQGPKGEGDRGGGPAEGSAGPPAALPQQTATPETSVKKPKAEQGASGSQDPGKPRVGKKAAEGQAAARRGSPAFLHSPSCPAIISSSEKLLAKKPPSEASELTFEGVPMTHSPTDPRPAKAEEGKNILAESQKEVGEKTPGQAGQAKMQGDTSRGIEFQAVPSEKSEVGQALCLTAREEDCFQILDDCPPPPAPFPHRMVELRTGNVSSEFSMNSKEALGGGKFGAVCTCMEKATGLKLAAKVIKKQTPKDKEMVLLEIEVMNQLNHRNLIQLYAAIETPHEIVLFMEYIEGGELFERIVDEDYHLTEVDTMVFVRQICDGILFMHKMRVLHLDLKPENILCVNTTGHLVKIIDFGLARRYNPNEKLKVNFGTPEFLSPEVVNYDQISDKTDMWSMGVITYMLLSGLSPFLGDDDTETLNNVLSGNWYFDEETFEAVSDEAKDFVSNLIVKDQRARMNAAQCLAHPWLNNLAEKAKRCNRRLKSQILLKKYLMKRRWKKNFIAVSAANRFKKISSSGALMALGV
Chain of UniProt Q9Y2U5 (whole entry, looked up): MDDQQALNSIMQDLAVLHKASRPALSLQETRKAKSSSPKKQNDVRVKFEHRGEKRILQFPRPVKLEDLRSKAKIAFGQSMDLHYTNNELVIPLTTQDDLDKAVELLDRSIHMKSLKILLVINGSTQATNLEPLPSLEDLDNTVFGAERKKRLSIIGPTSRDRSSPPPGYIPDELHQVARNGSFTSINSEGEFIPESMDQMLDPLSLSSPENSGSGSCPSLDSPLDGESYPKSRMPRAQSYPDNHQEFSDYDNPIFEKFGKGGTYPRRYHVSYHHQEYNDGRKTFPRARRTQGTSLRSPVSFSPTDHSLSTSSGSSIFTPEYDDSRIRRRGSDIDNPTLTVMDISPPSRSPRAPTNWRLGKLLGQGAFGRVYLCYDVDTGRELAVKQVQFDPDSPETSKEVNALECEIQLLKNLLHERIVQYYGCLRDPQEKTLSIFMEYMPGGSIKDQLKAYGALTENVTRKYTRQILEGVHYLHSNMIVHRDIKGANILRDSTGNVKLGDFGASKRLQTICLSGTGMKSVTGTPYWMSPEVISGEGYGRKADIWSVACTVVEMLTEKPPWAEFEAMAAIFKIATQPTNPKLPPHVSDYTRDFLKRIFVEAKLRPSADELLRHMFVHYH
Chain of UniProt P42336 (whole entry, looked up): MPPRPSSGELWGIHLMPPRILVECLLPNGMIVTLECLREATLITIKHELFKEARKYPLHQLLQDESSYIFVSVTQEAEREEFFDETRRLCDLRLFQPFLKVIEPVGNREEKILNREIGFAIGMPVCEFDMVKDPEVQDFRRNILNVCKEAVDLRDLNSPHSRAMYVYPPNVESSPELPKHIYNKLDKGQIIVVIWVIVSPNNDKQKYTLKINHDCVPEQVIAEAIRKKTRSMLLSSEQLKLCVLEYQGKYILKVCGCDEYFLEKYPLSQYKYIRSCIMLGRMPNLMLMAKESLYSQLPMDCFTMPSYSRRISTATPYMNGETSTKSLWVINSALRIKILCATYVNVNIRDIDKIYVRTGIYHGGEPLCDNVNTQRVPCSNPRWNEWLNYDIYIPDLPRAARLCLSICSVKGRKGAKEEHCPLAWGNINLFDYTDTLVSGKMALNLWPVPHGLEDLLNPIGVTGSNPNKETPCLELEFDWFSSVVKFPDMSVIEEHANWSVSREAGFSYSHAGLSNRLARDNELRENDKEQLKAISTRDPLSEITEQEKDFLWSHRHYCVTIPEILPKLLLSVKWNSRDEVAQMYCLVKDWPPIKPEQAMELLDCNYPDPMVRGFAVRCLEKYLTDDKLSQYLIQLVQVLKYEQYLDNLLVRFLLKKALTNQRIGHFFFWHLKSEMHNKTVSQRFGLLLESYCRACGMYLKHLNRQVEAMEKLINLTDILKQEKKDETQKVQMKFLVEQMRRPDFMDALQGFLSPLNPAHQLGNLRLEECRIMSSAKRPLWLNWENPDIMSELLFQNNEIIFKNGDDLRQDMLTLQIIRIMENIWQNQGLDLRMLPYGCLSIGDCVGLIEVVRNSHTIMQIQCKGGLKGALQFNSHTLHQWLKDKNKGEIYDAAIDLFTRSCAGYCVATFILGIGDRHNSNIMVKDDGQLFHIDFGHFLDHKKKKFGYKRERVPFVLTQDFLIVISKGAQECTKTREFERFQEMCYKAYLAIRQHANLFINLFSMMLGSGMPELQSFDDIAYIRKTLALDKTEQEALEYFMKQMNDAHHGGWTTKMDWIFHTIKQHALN
Chain of UniProt P51955 (whole entry, looked up): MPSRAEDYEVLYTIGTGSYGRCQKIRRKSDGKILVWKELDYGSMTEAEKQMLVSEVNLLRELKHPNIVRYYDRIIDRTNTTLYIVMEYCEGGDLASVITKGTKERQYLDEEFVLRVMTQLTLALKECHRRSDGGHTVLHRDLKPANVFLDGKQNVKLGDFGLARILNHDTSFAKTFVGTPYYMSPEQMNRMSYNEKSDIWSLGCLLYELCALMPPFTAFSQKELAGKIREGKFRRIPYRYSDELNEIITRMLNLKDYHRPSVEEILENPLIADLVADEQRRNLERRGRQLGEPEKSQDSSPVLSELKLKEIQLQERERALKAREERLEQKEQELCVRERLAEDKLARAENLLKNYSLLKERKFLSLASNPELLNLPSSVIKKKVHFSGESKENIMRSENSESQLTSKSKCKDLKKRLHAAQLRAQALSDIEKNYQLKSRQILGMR
Chain of UniProt Q99755 (whole entry, looked up): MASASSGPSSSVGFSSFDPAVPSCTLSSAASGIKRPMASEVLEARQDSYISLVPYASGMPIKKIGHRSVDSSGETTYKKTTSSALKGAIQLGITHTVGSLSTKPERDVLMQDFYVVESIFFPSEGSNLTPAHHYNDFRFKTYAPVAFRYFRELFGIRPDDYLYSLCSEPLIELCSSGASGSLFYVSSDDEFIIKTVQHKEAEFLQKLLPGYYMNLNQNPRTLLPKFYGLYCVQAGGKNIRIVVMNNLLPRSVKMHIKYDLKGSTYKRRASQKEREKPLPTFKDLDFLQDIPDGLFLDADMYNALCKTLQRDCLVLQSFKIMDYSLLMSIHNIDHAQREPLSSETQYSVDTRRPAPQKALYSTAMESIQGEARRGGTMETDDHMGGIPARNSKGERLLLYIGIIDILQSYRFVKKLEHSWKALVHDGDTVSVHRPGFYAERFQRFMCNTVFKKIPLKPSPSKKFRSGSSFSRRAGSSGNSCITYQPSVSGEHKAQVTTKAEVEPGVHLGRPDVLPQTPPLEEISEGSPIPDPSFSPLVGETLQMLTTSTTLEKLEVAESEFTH

Block 1 — host: mouse; medium: microsomes or S9; concentration: 2 µM; time: 0.5 h
SMILES | remaining compound [%]
Fc1ccc2nccc(Nc3ccccc3F)c2c1 | 88.4
Cc1sc(C(=O)O)cc1S(=O)(=O)N1CCCC2(CCS(=O)(=O)C2)C1 (centres unmarked) | 58
COC(=O)c1scc2c(NCCc3ccc(F)cc3)c(C(C)=O)c(=O)[nH]c12 | 2.31
CCCS(=O)(=O)N1CC(=O)N(c2ccc(F)cc2F)C(C)(C(=O)NC2CCCCCCC2)C1 (centres unmarked) | 0.288
O=C(NCCCN1CCCC1=O)C1CCCN1c1nnc(N2CCCC2=O)s1 (centres unmarked) | > 99
CCOC(=O)c1c(=O)n2cccnc2c2c(C)cccc12 | 0.413

Block 2 — observed: enzyme activity; mode: inhibitor; concentration: 10 µM
Target: Calcium/calmodulin-dependent protein kinase type II subunit alpha (CAMK2A, Homo sapiens, UniProt Q9UQM7)
Chain of UniProt Q9UQM7 (whole entry, looked up): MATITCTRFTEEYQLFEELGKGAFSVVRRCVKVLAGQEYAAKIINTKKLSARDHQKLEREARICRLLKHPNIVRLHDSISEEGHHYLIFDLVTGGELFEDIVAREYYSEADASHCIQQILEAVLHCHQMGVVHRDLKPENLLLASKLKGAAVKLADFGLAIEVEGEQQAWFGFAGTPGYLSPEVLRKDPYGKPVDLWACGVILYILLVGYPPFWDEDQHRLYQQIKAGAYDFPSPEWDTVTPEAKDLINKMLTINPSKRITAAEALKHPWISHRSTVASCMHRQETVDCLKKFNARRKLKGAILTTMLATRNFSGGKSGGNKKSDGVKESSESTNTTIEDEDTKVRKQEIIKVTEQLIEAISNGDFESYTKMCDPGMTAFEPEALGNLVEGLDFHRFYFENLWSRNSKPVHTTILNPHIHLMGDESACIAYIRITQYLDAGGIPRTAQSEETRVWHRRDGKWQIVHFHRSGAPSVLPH
SMILES | inhibition
CC(C)=CCc1c(O)cc2oc3cc(O)c(O)c(CC=C(C)C)c3c(=O)c2c1O | 17%
CCC(=O)CO | -35%
Cc1cn([C@H]2C[C@H](O)[C@@H](CO)O2)c(=O)[nH]c1=O | 2%
COc1c2ccoc2c(OC[C@@H](O)C(C)(C)O)c2oc(=O)ccc12 | 2%
CNCC(=O)O | -2%
CC1(C)C=Cc2c(ccc(-c3coc4cc(O)ccc4c3=O)c2O)O1 | 7%
Oc1cc(O)c2c(c1)O[C@@H](c1cc(O)c(O)c(O)c1)[C@H](O)C2 | 10%
N=C(N)N | -9%
O=C1[C@@H]2[C@H]3CC[C@H](C3)[C@@H]2C(=O)N1C[C@@H]1CCCC[C@H]1CN1CCN(c2nsc3ccccc23)CC1 | -8%
NC(=N\CCCCCC/N=C(N)/N=C(\N)Nc1ccc(Cl)cc1)/N=C(\N)Nc1ccc(Cl)cc1 | 5%

Block 3 — concentration: 1 µM
Structure (SMILES): CN1CCN(C(=O)c2ccc(NC(=O)Nc3ccc(N(C)c4ccnc(Nc5ccc(CS(C)(=O)=O)cc5)n4)cc3)cc2)CC1
target | method | notes | relative to | remaining binding
Serine/threonine-protein kinase tousled-like 1 (TLK1, Homo sapiens, UniProt Q9UKI8) | competitive binding panel | – | vehicle | 86%
BMP-2-inducible protein kinase (BMP2K, Homo sapiens, UniProt Q9NSY1) | competitive binding | BIKE | – | 2.4%
Serine/threonine-protein kinase ULK1 (ULK1, Homo sapiens, UniProt O75385) | competitive binding panel | – | vehicle | 79%
Serine/threonine-protein kinase SBK1 (SBK1, Homo sapiens, UniProt Q52WX2) | competitive binding panel | – | vehicle | 65%
Mitogen-activated protein kinase kinase kinase 2 (MAP3K2, Homo sapiens, UniProt Q9Y2U5) | competitive binding panel | – | vehicle | 38%
Myosin light chain kinase 2, skeletal/cardiac muscle (MYLK2, Homo sapiens, UniProt Q9H1R3) | competitive binding panel | – | vehicle | 36%

Block 4 — method: competition with immobilised ligand; concentration: 1 µM
Structure (SMILES): O=C(NCc1ncc(C(F)(F)F)cc1Cl)c1ccc2c(c1)C1(CCS(=O)(=O)CC1)[C@H](C1CC1)N2S(=O)(=O)c1ccc(F)cc1
target | observed | remaining binding [%]
Macrophage colony-stimulating factor 1 receptor (CSF1R, Homo sapiens, UniProt P07333) | cell-free assay | 100
Tyrosine-protein kinase Tec (TEC, Homo sapiens, UniProt P42680) | binding | 100
Macrophage colony-stimulating factor 1 receptor, autoinhibited (CSF1R, Homo sapiens, UniProt P07333) | cell-free assay | 100
Phosphatidylinositol 4,5-bisphosphate 3-kinase catalytic subunit alpha isoform (PIK3CA, Homo sapiens, UniProt P42336) | cell-free assay | 100
Serine/threonine-protein kinase Sgk1 (SGK1, Homo sapiens, UniProt O00141) | cell-free assay | 79
Phosphatidylinositol 4-phosphate 5-kinase type-1 alpha (PIP5K1A, Homo sapiens, UniProt Q99755) | cell-free assay | 100
Inhibitor of nuclear factor kappa-B kinase subunit beta (IKBKB, Homo sapiens, UniProt O14920) | cell-free assay | 92
Mitogen-activated protein kinase 7 (MAPK7, Homo sapiens, UniProt Q13164) | cell-free assay | 99
Serine/threonine-protein kinase DCLK2 (DCLK2, Homo sapiens, UniProt Q8N568) | cell-free assay | 100
Tyrosine-protein kinase ABL1, non-phosphorylated (ABL1, Homo sapiens, UniProt P00519) | cell-free assay | 92
Serine/threonine-protein kinase Nek2 (NEK2, Homo sapiens, UniProt P51955) | cell-free assay | 89
Homeodomain-interacting protein kinase 2 (HIPK2, Homo sapiens, UniProt Q9H2X6) | cell-free assay | 81
Epidermal growth factor receptor (EGFR, Homo sapiens, UniProt P00533, del747-750/T751S) | cell-free assay | 100

For quick reference, copied from above (block 4):
target | observed | remaining binding [%]
Serine/threonine-protein kinase DCLK2 (DCLK2, Homo sapiens, UniProt Q8N568) | cell-free assay | 100
Mitogen-activated protein kinase 7 (MAPK7, Homo sapiens, UniProt Q13164) | cell-free assay | 99
Phosphatidylinositol 4,5-bisphosphate 3-kinase catalytic subunit alpha isoform (PIK3CA, Homo sapiens, UniProt P42336) | cell-free assay | 100
Macrophage colony-stimulating factor 1 receptor, autoinhibited (CSF1R, Homo sapiens, UniProt P07333) | cell-free assay | 100
